Measurements from different studies.
Parts stem from different laboratories: compare values within a part only.

Set 1 — method: universal PBM; molecule type: double-stranded DNA, one strand shown; matrix: in vitro; concentration: not given; direction: higher = stronger binding
Target: Sal-like protein 4, full length isoform B (SALL4, Homo sapiens, UniProt Q9UJQ4-2, residues 1-616)
Setting: 8-mer, flanks averaged, mean of replicates
For `CAGGATGA`, the E-score was -0.0651.
The E-score of `AGCTAGAT` is reported as 0.097.
The E-score of `AGGCGAGC` is reported as -0.274.
`AGCCCGAG` has an E-score of -0.224.
`GAAACTCC` has an E-score of -0.332.
`CGTTGACA` has an E-score of -0.112.
`CAGCTCCA` has an E-score of -0.153.

Set 2 — method: RNA Bind-n-Seq; molecule type: RNA; matrix: in vitro; concentration: 365 nM; baseline: no-protein control; direction: higher = stronger binding
Target: RNA binding protein fox-1 homolog 2, RRM domain, GST-SBP tag (RBFOX2, Homo sapiens, UniProt O43251-10, residues 100-194)
Setting: natural RNA segment, single round, ends assumed
For `GGGAGUUCUACAGUCCGACGAUCGGUGUUAACUCUUUCUGCUCCUUGCAUUUUGACAUCCCUGAAGGGGAGCUCUUGGAUAUCAUUGGCCAUGUUUCAAUCGAAUGGAGCCACUGGGCCCCAACACUGGCUUUUGGAAUUCUCGGGUGCCAA`, “RBNS enrichment (R)” read 3.05.
Under “RBNS enrichment (R)”, `GGGAGUUCUACAGUCCGACGAUCCUGUAAAAUGUGUGUAAAUUUGUAUCCUUUACACAAGUUUAGUCUCUUACUCUGACACAUAGUAAUUGUGACAGCAGGGCUAAUGUUGAAGAAAAGUCAGAAGAAUCUUUUGGAAUUCUCGGGUGCCAA` is recorded as 0.692.
For `GGGAGUUCUACAGUCCGACGAUCUUUUUAUUUUUGAAGUACUCUGACACCUCCACCCUCUACUUUAUUAGAAUUGGAAGGCAAAUUUUUGUCCAAAAACCUACAGACAAGUACUUUGAGAGAAUUUCCAAUAUUGGAAUUCUCGGGUGCCAA`, “RBNS enrichment (R)” read 0.514.

Set 3 — method: protein binding microarray; molecule type: double-stranded DNA, one strand shown; matrix: in vitro; concentration: not given; baseline: not given; direction: higher = stronger binding
Target: Histone acetyltransferase KAT6A, both winged helices, GST fusion (KAT6A, Homo sapiens, UniProt Q92794, residues 1-181)
Setting: 8-mer, flanks averaged, mean of 2 arrays, mostly near background
Residues (chain): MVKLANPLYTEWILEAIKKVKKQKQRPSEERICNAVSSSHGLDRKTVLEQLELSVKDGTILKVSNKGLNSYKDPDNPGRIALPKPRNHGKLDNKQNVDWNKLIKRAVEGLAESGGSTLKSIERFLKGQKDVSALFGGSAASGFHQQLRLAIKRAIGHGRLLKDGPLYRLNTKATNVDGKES
For `TCGCAAAA`, the E-score was 0.0616.
The E-score of `AATGGCAT` is reported as -0.0156.
For `GTTACGTA`, the E-score was -0.0563.
`CCGCGAAA` has an E-score of 0.317.
For `GAAAAGCA`, the E-score was -0.0852.
With `AAGTCCGC` the E-score was 0.268.

Single results of other studies
With `PhoQ, residues 284 288 289 292 302 303 ALVSVA` the fold induction was 21 (PhoP, residues 12 14 15 18 19 QQAYL (Escherichia coli, UniProt P23836); Sort-seq, refers to: YFP reporter; E. coli; PhoQ-PhoP variant library, with: 10 µM Mg2+; baseline: high Mg2+ state, higher = stronger signaling).

Repeated from above (set 2):
For `GGGAGUUCUACAGUCCGACGAUCGGUGUUAACUCUUUCUGCUCCUUGCAUUUUGACAUCCCUGAAGGGGAGCUCUUGGAUAUCAUUGGCCAUGUUUCAAUCGAAUGGAGCCACUGGGCCCCAACACUGGCUUUUGGAAUUCUCGGGUGCCAA`, “RBNS enrichment (R)” read 3.05.
Under “RBNS enrichment (R)”, `GGGAGUUCUACAGUCCGACGAUCCUGUAAAAUGUGUGUAAAUUUGUAUCCUUUACACAAGUUUAGUCUCUUACUCUGACACAUAGUAAUUGUGACAGCAGGGCUAAUGUUGAAGAAAAGUCAGAAGAAUCUUUUGGAAUUCUCGGGUGCCAA` is recorded as 0.692.
